Assay results gathered from unrelated publications.
Lines come from different studies, so protocols differ.

For `CCc1c(C(=O)C(N)=O)c2c(OCC(=O)O)cccc2n1Cc1ccccc1`, the viability difference was 7.17% (C2C12; 1 µM, together with: KL venom; relative to: venom alone).
With `O=C(Nc1ncc(-c2ccccc2)s1)C1CCCCC1` the MIC was over 20 µM (Histoplasma capsulatum; microbial growth).
For `CCCCCCCC(=O)Nc1nc(-c2ccccn2)cs1`, the MIC was 0.78 to 1.6 µM (Mycobacterium tuberculosis; microbial growth, broth dilution; H37RV).
`CC[C@H](C)[C@H](NC(=O)[C@H](CC(C)C)NC(=O)[C@H](Cc1c[nH]c2ccccc12)NC(=O)[C@H](CCC(N)=O)NC(=O)[C@@H](NC(=O)[C@H](Cc1ccccc1)NC(=O)[C@H](C)NC(=O)[C@H](CCCCNC(=O)COCCOCCNC(=O)COCCOCCNC(=O)CC[C@H](NC(=O)CCCCCCCCCCCCCCCCCCC(=O)O)C(=O)O)NC(=O)[C@H](CCC(N)=O)NC(=O)[C@H](C)NC(=O)[C@@H](NC(=O)[C@H](CCCCN)NC(=O)[C@H](CC(=O)O)NC(=O)[C@H](CC(C)C)NC(=O)C(C)(C)NC(=O)[C@@H](NC(=O)[C@H](CO)NC(=O)[C@H](Cc1ccc(O)cc1)NC(=O)[C@H](CC(=O)O)NC(=O)[C@H](CO)NC(=O)[C@@H](NC(=O)[C@H](Cc1ccccc1)NC(=O)[C@@H](NC(=O)CNC(=O)[C@H](CCC(=O)O)NC(=O)C(C)(C)NC(=O)[C@@H](N)Cc1ccc(O)cc1)[C@@H](C)O)[C@@H](C)O)[C@@H](C)CC)[C@@H](C)CC)C(C)C)C(=O)N[C@@H](C)C(=O)NCC(=O)NCC(=O)N1CCC[C@H]1C(=O)N[C@@H](CO)C(=O)N[C@@H](CO)C(=O)NCC(=O)N[C@@H](C)C(=O)N1CCC[C@H]1C(=O)N1CCC[C@H]1C(=O)N1CCC[C@H]1C(=O)N[C@@H](CO)C(N)=O` — result for “treatment-emergent adverse events”: 16.7% (healthy human; 2.5 mg, single ascending dose).
With `[O-][N+]1=C(c2ccc(Cl)cc2)C2=NCCN2c2ccccc21` the MIC was 0.25 to 1 µg/mL (Clostridium perfringens).
`CCCCCCCC/C=C\CCCCCCCC(=O)NS(=O)(=O)NCCC` gave an MIC of over 200 µg/mL (Bacillus anthracis; Sterne 34F2).
The MIC of `O=C(Nc1nc(-c2ccccn2)cs1)c1cccc(F)c1F` is reported as 0.098 to 0.19 µM (Mycobacterium tuberculosis; microbial growth, broth dilution; H37RV).
With `Cc1cccc(N2CCN(C(=O)C3CCN(Cc4nc(-c5ccc(Cl)cc5)oc4C)CC3)CC2)c1C` the maximum response was 13.3% (SARS-CoV-2; cytopathic effect; USA_WA1/2020; retest, 8-point, duplicates).
For `Oc1c(Cl)cc(Cl)cc1-c1[nH]c(Cl)c(Cl)c1Cl`, the MIC was 0.5 µM (Brucella anthropi; ATCC 49687).
For `O=C(Nc1ncc(Cc2ccccc2)s1)c1cnc(-c2cccs2)s1`, the MIC was over 20 µM (Histoplasma capsulatum; microbial growth).
Under “participants with adverse events”, `CC(C)(C)[C@H](NC(=O)C(F)(F)F)C(=O)N1C[C@H]2[C@@H]([C@H]1C(=O)N[C@H](C#N)C[C@@H]1CCNC1=O)C2(C)C` is recorded as 1% (human, fasted; oral, 1500 mg single dose, 28 days, no ritonavir).
For `Cc1nc(NC(=O)CCC2CCCCC2)sc1Cc1ccccc1`, the MIC was over 20 µM (Histoplasma capsulatum; microbial growth).
`Nc1ncnc2c([C@@H]3N[C@H](CO)[C@@H](O)[C@H]3O)c[nH]c12`: “supernatant virus titre” 590000 PFU/mL (Marburg marburgvirus; virus production; HeLa, Musoke; 6.3 µM).
`O=[N+]([O-])c1ccc(C2=[N+]([O-])c3ccccc3N3CCN=C23)cc1` has an MIC of 0.06 to 0.25 µg/mL (Clostridium perfringens).
`O=C(O)c1cn(C2CC2)c2cc(N3CCNCC3)c(F)cc2c1=O` gave an MIC of 1 µM (Brucella anthropi; ATCC 49687).
`CNC(=O)[C@@H](NC(=O)[C@H](CC(C)C)[C@H](O)C(=O)NO)C(C)(C)C`: “remaining fibrinogen γ chain” 0.54 (human fibrinogen; SDS-PAGE; Daboia russelii; concentration not given, unit not given, together with: PB venom; relative to: untreated fibrinogen).
With `CC(C)(C)OC(=O)Nc1ncc(C(O)c2ccccc2)s1` (stereo not drawn) the MIC was over 20 µM (Histoplasma capsulatum; microbial growth).
`CCCCN(C)CCCNC(=O)c1ccc2nc(N3CCCCC3)sc2c1` gave a maximum response of 6.99% (SARS-CoV-2; cytopathic effect; USA_WA1/2020; retest, 8-point, duplicates).
`Cn1cnc(Cn2c(=O)[nH]/c(=N\c3cc4cn(C)nc4cc3Cl)n(Cc3cc(F)c(F)cc3F)c2=O)n1` has an unbound fraction of 0.013 (human, normal renal function, plasma; oral, 375 mg single dose, 3 h).
The MIC of `CCCCCCCNC(=O)CP(=O)(O)O` is reported as 100 µg/mL (Bacillus anthracis; Sterne 34F2).
`O=C(Nc1nc(-c2ccccn2)c[nH]1)c1ccccc1` has an MIC of 3.13 to 6.25 µM (Mycobacterium tuberculosis; microbial growth, broth dilution; H37RV).
`Oc1c(Br)cc(Br)cc1-c1[nH]c(Br)c(Br)c1Br` has an MIC of 32 µM (Yersinia pseudotuberculosis; ATCC 6904).
For `O=C(Nc1ncc(Cc2cccc3ccccc23)s1)C12CC3CC(CC(C3)C1)C2`, the MIC was over 20 µM (Histoplasma capsulatum; microbial growth).
`CCCCCCCC/C=C\CCCCCCCC(=O)C(F)(F)P(=O)(O)O` gave an MIC of 25 µg/mL (Bacillus anthracis; microbial growth; STERNE34F2).
`O=C(Nc1nc(-c2ccccn2)cs1)C1CCCC1` has an MIC of 3.1 to 6.3 µM (Mycobacterium tuberculosis; microbial growth, broth dilution; H37RV).
With `CCCCCCCCCCCCCCCC(=O)NS(=O)(=O)OCCCC` the MIC was over 200 µg/mL (Bacillus anthracis; Sterne 34F2).
`O=C(Nc1nc(C23CC4CC(CC(C4)C2)C3)cs1)C1CCCCC1` has an MIC of 5 to 20 µM (Histoplasma capsulatum; microbial growth).
With `Cc1cccc(Nc2nc(-c3ccccn3)cs2)n1` the MIC was 0.78 to 1.6 µM (Mycobacterium tuberculosis; microbial growth, broth dilution; H37RV).
For `O=C(Nc1ncc(Cc2ccccc2)s1)N1CCOCC1`, the MIC was over 20 µM (Histoplasma capsulatum; microbial growth).
`O=C(Nc1nc(-c2ccccn2)cs1)c1cc(F)ccc1F` has an MIC of 0.098 to 0.19 µM (Mycobacterium tuberculosis; microbial growth, broth dilution; H37RV).

Repeated from above:
For `Oc1c(Cl)cc(Cl)cc1-c1[nH]c(Cl)c(Cl)c1Cl`, the MIC was 0.5 µM (Brucella anthropi; ATCC 49687).
`O=C(Nc1nc(-c2ccccn2)cs1)c1cc(F)ccc1F` has an MIC of 0.098 to 0.19 µM (Mycobacterium tuberculosis; microbial growth, broth dilution; H37RV).
